Measurements gathered from unrelated publications.
Each numbered part is a random draw from the data of one study; scales do not carry over between parts. Changes are numbered by the printed parent chain.

Sample 1
Target: CCNB1, cyclin fold, Cln2 fusion (human)
Technique: yeast growth competition, sequencing
Medium: yeast
Setting: weak parent motif
Baseline: not given
Reading: higher = stronger binding
Endpoint: normalised enrichment score
Starting sequence: SLBP docking peptide (human); ARYKRKLLINDFG
K4Y: 0.719
A1M: 0.951
R5E: 0.387
R5A L7A: 0.295
L8K: -0.135
I9K: 1.51
L7D: 0.506
G13P: 1.33
F12R: 1.37
A1R: 0.343
D11T: 0.909
A1K: -0.0351
D11N: 0.277
R5W: -0.76
G13A: 0.0123
R2W: 0.491
I9T: 1.34
N10K: 0.2

Sample 2
Target: Sal-like protein 4, full length isoform A (SALL4, Homo sapiens, UniProt Q9UJQ4, residues 1-1053)
Chain of UniProt Q9UJQ4 (whole entry, looked up): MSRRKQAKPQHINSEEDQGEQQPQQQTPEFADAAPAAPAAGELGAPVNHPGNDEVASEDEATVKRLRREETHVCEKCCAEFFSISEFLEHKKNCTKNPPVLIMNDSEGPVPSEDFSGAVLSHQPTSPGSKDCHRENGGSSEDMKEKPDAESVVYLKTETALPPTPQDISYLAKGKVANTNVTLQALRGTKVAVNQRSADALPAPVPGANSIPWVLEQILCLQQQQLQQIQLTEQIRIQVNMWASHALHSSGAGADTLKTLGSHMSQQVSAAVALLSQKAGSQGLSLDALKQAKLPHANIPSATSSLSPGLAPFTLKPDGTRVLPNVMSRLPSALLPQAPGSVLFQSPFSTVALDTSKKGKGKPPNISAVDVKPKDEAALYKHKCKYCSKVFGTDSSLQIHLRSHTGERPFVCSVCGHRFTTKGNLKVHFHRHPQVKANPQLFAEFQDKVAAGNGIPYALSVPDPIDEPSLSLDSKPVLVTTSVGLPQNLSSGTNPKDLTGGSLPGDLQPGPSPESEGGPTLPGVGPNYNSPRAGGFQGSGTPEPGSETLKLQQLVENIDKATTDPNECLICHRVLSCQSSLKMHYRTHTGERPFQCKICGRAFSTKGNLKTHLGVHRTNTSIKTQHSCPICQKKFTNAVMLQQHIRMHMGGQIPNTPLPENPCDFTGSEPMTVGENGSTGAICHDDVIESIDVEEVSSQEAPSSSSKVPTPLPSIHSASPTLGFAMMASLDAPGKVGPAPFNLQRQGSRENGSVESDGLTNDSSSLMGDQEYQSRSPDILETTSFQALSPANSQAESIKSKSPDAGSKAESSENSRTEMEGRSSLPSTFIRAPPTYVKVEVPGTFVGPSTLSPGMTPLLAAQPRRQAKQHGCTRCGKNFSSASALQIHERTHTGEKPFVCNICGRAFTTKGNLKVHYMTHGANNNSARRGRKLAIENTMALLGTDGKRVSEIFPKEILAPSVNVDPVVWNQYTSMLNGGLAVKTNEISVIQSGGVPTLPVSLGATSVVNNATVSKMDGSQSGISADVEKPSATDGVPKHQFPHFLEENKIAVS
Technique: universal PBM
Molecule type: double-stranded DNA, one strand shown
Medium: in vitro
Tested at: 600 nM
Setting: 8-mer, flanks averaged, mean of replicates
Reading: higher = stronger binding
Endpoint: E-score
GGAGTCCC: -0.407
CAAAGCCG: -0.094
AACTTGTC: 0.0882
ACTTCGTC: -0.133
GGGGGTGA: -0.168
CCTGTAAG: -0.0486
GCATAGCC: -0.155
AACATGCC: -0.109
ACGGAGCG: -0.174
CGAAGTAA: 0.0487
GTTGGTCA: 0.0669
AATCGTTA: 0.227
AACAGGTA: 0.0915
ATGATACG: 0.236
AAGTTAAC: 0.166
TTACCAAA: 0.291
ACCATCAA: 0.156
GAGACCCC: -0.226
CGCGAAAC: -0.219
TAAATCCA: 0.147

Sample 3
Target: PABPC1L2, full length, GST fusion (mouse, UniProt A0ABA7IW68)
Technique: RNAcompete
Molecule type: RNA
Medium: in vitro
Tested at: 20 nM
Setting: 7-mer, probes averaged, single round
Baseline: mean of 7-mers
Reading: higher = stronger binding
Endpoint: 7-mer Z-score
Target sequence (chain): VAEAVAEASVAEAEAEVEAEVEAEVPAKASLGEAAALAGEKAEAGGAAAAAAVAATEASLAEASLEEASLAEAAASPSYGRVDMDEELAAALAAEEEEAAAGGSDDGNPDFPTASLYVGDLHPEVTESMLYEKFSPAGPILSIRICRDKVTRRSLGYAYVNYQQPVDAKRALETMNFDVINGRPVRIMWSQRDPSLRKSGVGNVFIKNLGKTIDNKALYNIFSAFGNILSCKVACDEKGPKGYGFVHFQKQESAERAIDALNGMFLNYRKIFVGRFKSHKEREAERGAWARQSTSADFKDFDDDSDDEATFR
UAAGUUC: -0.327
UGCGCCU: -0.403
CAGCUUU: -0.235
GAUCCUU: -0.353
UAGCAGC: -0.22
UUGGGUA: -0.0573
UAUGGGA: 0.215
CUAAAGA: 0.553
ACCGGUA: -0.00289
UUAGCAG: -0.215
GCAAUAU: 0.0279
GGUGAGU: -0.316
CGAUUGC: -0.249
UGAGACU: -0.164
CGUGGGU: -0.193
UGUAUAU: -0.253
UCCGCGU: -0.479
AUUGCCG: -0.164
GCGUCAA: -0.012
CCUUAUC: -0.387

Sample 4
Target: Histone acetyltransferase KAT6A, winged helix 2, GST fusion (KAT6A, Homo sapiens, UniProt Q92794, residues 85-181)
Technique: protein binding microarray
Molecule type: double-stranded DNA, one strand shown
Medium: in vitro
Tested at: not given
Setting: 8-mer, flanks averaged, mean of 2 arrays, mostly near background
Baseline: not given
Reading: higher = stronger binding
Endpoint: E-score
Construct (chain): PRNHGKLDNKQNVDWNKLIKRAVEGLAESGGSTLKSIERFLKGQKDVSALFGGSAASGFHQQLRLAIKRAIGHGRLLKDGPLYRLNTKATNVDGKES
ACTTTCCA: -0.109
CCTATGAG: -0.147
TAGGAATA: -0.0557
TCTAGAAA: 0.0152
CGATTAAA: 0.142
GGATAAGA: -0.266
CAACTAGC: 0.148
CTATCATA: -0.00895
ACACGGAA: 0.0512
TCAGTGCA: 0.0709
CGTGCGTA: 0.0824
CCAACGGA: 0.0878
GCCTAAAA: 0.085
CATCTCGC: 0.0658
AGCGTGAA: -0.0917
ACTTCAAT: 0.00829
GCATTTTA: 0.156
GACACTGA: 0.0645
ATGAGGTA: -0.0626
AGGGACAC: 0.148
TCCGTACA: -0.0356
AGGTATGA: 0.0881
AAGTCAGC: 0.0991
AGCTAGCT: 0.0286
ATAGTTTG: 0.0149

Sample 5
Target: Centromere-binding protein 1, full length, His-tagged (CBF1, Saccharomyces cerevisiae, UniProt P17106, residues 1-351)
Chain of UniProt P17106 (whole entry, looked up): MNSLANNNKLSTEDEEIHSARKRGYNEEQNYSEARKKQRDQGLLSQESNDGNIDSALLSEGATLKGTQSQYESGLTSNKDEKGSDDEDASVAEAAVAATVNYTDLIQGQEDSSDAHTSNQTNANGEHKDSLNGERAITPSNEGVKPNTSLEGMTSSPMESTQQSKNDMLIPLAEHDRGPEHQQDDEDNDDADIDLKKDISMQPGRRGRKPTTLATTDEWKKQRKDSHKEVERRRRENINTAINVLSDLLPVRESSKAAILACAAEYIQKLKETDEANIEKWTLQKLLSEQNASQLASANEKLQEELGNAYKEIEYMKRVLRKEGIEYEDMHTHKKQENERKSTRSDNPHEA
Technique: competition protein-binding microarray
Molecule type: double-stranded DNA, one strand shown
Medium: in vitro
Tested at: 2 µM
Setting: whole 60-bp probe, lowest competitor level
Added: Pho4 competitor, 0.05 µM
Reading: higher = stronger binding
Endpoint: fluorescence intensity
Constant ends, left off below: … GTCTTGATTCGCTTGACGCTGCTG
CACCGCCCCCAGGTAACCGTGCGGAATGAGCTAATC: 73.3 a.u.
CATACCCAACCTTGCTTAGTGGGTGAAGATATTTGT: 64.4 a.u.
ATGGATTGTCTCTGGCACGTTCCACTGGTGGCTCAG: 78.2 a.u.
CGCTAATTTCCTACCCACGTGCTTTAAATAACAATT: 5830 a.u.
CTTCTGTAAATTTGTCTAGTGGGTGGACGCGCCCCG: 82.1 a.u.
ATTTTCCTCAATCTGCTCGTGTAAGTGTCGGCCCGG: 70.8 a.u.
CAACGTATAGACCATCACGTGGTGAGTTTGAAGGGA: 3910 a.u.
CATACCCAACCTTGGAACGTGGGTGAAGATATTTGT: 90.5 a.u.
CGGGGTTAAGTTTGACGGGTGGGTGGCTTGCAGCAG: 68.4 a.u.
TGCGCAACAACTTGATGCGTGGGTGTATGTCTAGAA: 73.9 a.u.
TTGACGCTGTGTCTCCTCGTGTGAAATCGCAGTACA: 67.9 a.u.
TGCGCAACAACTTGGGCAGTGGGTGTATGTCTAGAA: 65 a.u.
CATACCCAACCTTGACACGTGTTTTAAGATATTTGT: 1710 a.u.
AAAGCGGTAATTTGTATCGTGGGTGCAGATATCTAT: 89.3 a.u.
GAGCCTGTCGCCTCTTACATGACAAAAATGTTGGAA: 79.6 a.u.
CACACCCAATTTTTGCACGTGCTTTAATAGTAGTTT: 3570 a.u.
CTAACGAAGGTTTGGCAAGTGGGTGACAAGCCAAGT: 63.7 a.u.
TGTGTCAATAACCCCATAATTTGAACTTCTTTCATC: 85.8 a.u.
GGACATAAATGCTCGCGCATGACAGAGACTGGCCGG: 81.9 a.u.
CTTTCCCGATCTTGGTTTGTGGGTGTAGCACATTTG: 77.5 a.u.
CTAACGAAGGTTTGTCACGGAACTTACAAGCCAAGT: 91.5 a.u.
AAATTACTAAGTTGAGATGTGGGTGACGCCGTATGA: 85.3 a.u.
GGGTGTCGATACCGTCACGTGAAGACATTCCAAGTC: 3650 a.u.
CTAACGAAGGTTTGCGATGTGGGTGACAAGCCAAGT: 71.7 a.u.

Sample 6
Target: RNA binding protein fox-1 homolog 2, RRM domain, GST-SBP tag (RBFOX2, Homo sapiens, UniProt O43251-10, residues 100-194)
Technique: RNA Bind-n-Seq
Molecule type: RNA
Medium: in vitro
Tested at: 365 nM
Setting: natural RNA segment, single round, ends assumed
Baseline: no-protein control
Reading: higher = stronger binding
Endpoint: RBNS enrichment (R)
Constant ends, left off below: GGGAGUUCUACAGUCCGACGAUC … UGGAAUUCUCGGGUGCCAA
Residues (chain): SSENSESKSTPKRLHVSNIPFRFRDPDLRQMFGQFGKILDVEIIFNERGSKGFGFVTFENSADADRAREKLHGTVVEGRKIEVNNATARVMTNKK
AGAGGGAGUGAAGAGCCUGCCCUCCUAUAUGGAUUCUUCAGGGCCCUCCACAUCUGAGGUGGCUCAUUCCCAUCACACACAGAUUGUCCUGGUGUUCAUUUCAAGGCCAG: 0.459
ACAGAUACAGUCUCCUUGGCCUAUAAUGAAACCACUAGGACUUUAUACAGUUUUCCUUAAUUUGUUGACAUAUAAAUGGUAAAUUAUAUUUAGGCUUAUCCUGUUUUGAA: 0.789
UGAUUAAAGAUGUCUCAUGUACUUGGAAAAGUGAGCAUUUUUUUUUUUUUUGUAUUUCACUUUCAUACCAGGCUUAAUGUCAAUGACAUUUUUAUUUUUGAAGUACUCUG: 0.796
CCUGCCAAGCACCUUGAAUGGGAGGGGUCCUUCAAGUGGGCCGGGCUGGGGUCCAACGGGGGUGGGGGAGGUUCCUGCUCUGCCCCAGCUGGGUCCUACCCAGUCUUGUC: 0.385
UUUAAUAAGAAAAACUUGAAGUUUAGGAGCUUAAAAGACUUAGCCUGAGGCAGAAGGAGGUGAGCACUUAAUCCUUUGAGCCAUGCGGUCUCUUUUACAGUCUAGAAACU: 0.442
AGAAAAAGGUCUAUUCUUCAGCAGAUCACUGUGGCCCCUCUUGGAGCUGGGUGUUUUCAAAUUUUCUUGAAAAGUGAGUUGUGUCACAGAAUGUGGAUAGUGAGAUUUGC: 1.51
CUAGUUUCUUAAGCAGACCAAGUGAAUGGCUUACAGUCUGAAACAAAUAAAAGCCUUUGUAAAAGUCUGCGGUCUGCCGUCUGGUAAGCCAUCACUGCCGCCAGGAAGAG: 0.372
CCUCCGUGCCACGCACUGAAGGCCACCCCCACCCACCUGGGAAACUAAGAACUGGAUAUUUUGCCUCAUUCACUUGUACUGUAACAAUGUAUAUAAUUUGGUUGGUAUUU: 0.281
UUUUCCAGUGUGGUUUUUAACAGAUAAUACAUUUCUUCCACAUUCAGAUUAGUAUUCGGACAUGAAUCCAUUCUAUAAAACACAUCGUGUUCAUGAUAGUGUAUAUUUUA: 0.342
AGACCAGCUGCUGCGACACUAAUGCUAAGCCUAUGGGGAAGCACUGUUGACCUGCUCAGGUGCACAUCUGUGAUGCCGACAGACUUGGUUCAGUUUUUAUAGUUGUGUUG: 0.292
UCUAUUGUCAGCAUCAUUUUCAUCUGUAAGUCACUACUGGAAUAUAUUUUUCUUUUAAUUUCCAGUGACUUUAGAAUACACACAGUUUUUCCGACUUUUCAAAAAUUUGA: 0.892
CCCGGUAGACGGGCACCCCGAGAUGUACCAACCUUUUCAUGUAUUCUGCCAAAAGCAUUGUUUUCCAGGGCCCUUGACCAACAUCGGCUUCCCCAGUCCAGGGCUCCCCU: 0.684

Some of these lines once more (sample 1):
L8K: -0.135
A1K: -0.0351
R2W: 0.491
R5W: -0.76
I9T: 1.34
R5A L7A: 0.295
F12R: 1.37
G13A: 0.0123
D11T: 0.909
N10K: 0.2
D11N: 0.277
L7D: 0.506
R5E: 0.387
K4Y: 0.719
G13P: 1.33
